Assay results from different studies.
Several values in a cell are separate wells, animals, samples, runs or records. ± gives the spread as reported.

| Structure (SMILES) | test | system | setting | how to read | quantity | value |
| --- | --- | --- | --- | --- | --- | --- |
| Cc1ccc(N(O)N=Nc2ccc(S(=O)(=O)Nc3cc(C)on3)cc2)cc1 | carrageenan-induced paw edema | Wistar rat | oral, 100 mg/kg, 3 h after carrageenan, with: carrageenan 1% subplantar | higher = more edema | paw edema volume | 4.21 ± 0.67 a.u. |
| CSCCNc1nc(SCCC(F)(F)F)nc2c1ncn2[C@@H]1O[C@H](COP(=O)(O)OP(=O)(O)C(Cl)(Cl)P(=O)(O)O)[C@@H](O)[C@H]1O | ADP-induced platelet aggregation, LTA | human patients, platelet-rich plasma | dose not given, 4 to 6 h, with: ADP 20 µM |  | inhibition | 25.3 ± 25.3% |
| Cc1ccc(C(=O)OCc2ccc([C@@H](CN)C(=O)Nc3ccc4cnccc4c3)cc2)c(C)c1 | item: pMLC-2 Thr18/Ser19 | ocular hypertensive rabbit, trabecular meshwork | topical, 0.02 %, 24 h | direction not given | pMLC-2 immunostaining score | 2 ± 0.8 |
| Cc1n[nH]c2ccc(-c3cc(OC[C@@H](N)Cc4ccccc4)cnc3-c3ccoc3)cc12 | kinase binding, competitor, MIB/MS competition, item: FPK1 | Candida albicans cell lysate | 1 µM | reference: DMSO | log2 fold change | -0.0445 |
| COc1ccccc1[C@H](Cn1c(=O)n(C(C)(C)C(=O)O)c(=O)c2c(C)c(-c3ncco3)sc21)OC1CCOCC1 |  | human | 200 mg, post-treatment |  | serum total cholesterol | 179 ± 31.7 mg/dL |
| COc1cc(/C=C/C(=O)N2CCC=CC2=O)cc(OC)c1OC | qRT-PCR, item: CIAP | nude mouse, 468 xenograft, tumour | 15 mg/kg, 21 days, unit not given | reference: β-actin, vehicle | mRNA level | 0.498 |
| Cn1cc(Nc2nccc(-c3ccc4c(c3)CN(C3COC3)CC[C@H]4NC(=O)c3cn(C(C)(C)C)nn3)n2)cn1 | item: NAD biosynthesis from tryptophan | splenic B cells, mice | 30 mg/kg, IgD-activated in vivo | reference: vehicle, direction not given | pathway activation z-score | 2.24 |
| COc1nc(NCc2cn(-c3ccc(NC(=O)c4ccc(F)cc4)cc3)nn2)nc(OC)n1 | cell viability, MTT | normal colonocytes, rat | 72 h |  | IC50 | 0.0148 ± 0.00618 µM |
| C[C@H]1O[C@@H](O[C@H]2CC[C@@]3(C)[C@@H](CC[C@]4(C)[C@@H]3C=C[C@]35OC[C@@]6(CCC(C)(C)C[C@H]63)[C@@H](O)C[C@]54C)[C@]2(C)CO)[C@H](O)[C@@H](O[C@@H]2O[C@H](CO)[C@@H](O)[C@H](O)[C@H]2O)[C@H]1O | qRT-PCR, item: SIRT1 | chronic-plus-binge ethanol-fed mice, liver | dose not given, high dose | reference: control mice | mRNA level | 1.92 fold change and 1.19 fold change and 1.15 fold change |
| CN(C(=O)n1cnc(-c2ccc[n+]([O-])c2)c1)C1CCCCC1 | item: PEA | human, plasma | 5 mg single dose |  | AUC(0-t) | 355 ng·h/mL |
| COc1cc2cc(-c3ccc(CC(=O)Nc4cc(C(C)(C)C(F)(F)F)no4)cn3)cnc2cc1OC | RECIST v1.1 | human RET-altered solid tumours | 13 100 mg tablets, phase I |  | best overall response PR | 50% |
| OC(CCN1CCCCC1)(c1ccccc1)C1CC2C=CC1C2 (stereo not drawn) | resting-state EEG | healthy elderly humans | oral, 4 mg, eyes open, LS mean |  | EEG Alpha2-power Fz-Cz | 1.9 µV² |
| C=CCn1c(=O)c2cnc(Nc3ccc(N4CCN(C)CC4)cc3)nc2n1-c1ccc2c(n1)[C@@](O)(CC)CC2 |  | SK-UT-1 xenograft, BALB/c nude mice | oral, 80 mg/kg, day 24, 6 d on, 1 d off x 4 cycles |  | tumour growth inhibition | 98.2% |
| CCCN(O)N=Nc1ccc(S(=O)(=O)Nc2cc(C)on2)cc1 | carrageenan-induced paw edema | Wistar rat | oral, 100 mg/kg, 4 h after carrageenan, with: carrageenan 1% subplantar | higher = more edema | paw edema volume | 4.25 ± 0.46 a.u. |
| C[C@H]1C[C@H]2CSC(N)=N[C@@]2(c2nc(NC(=O)c3ccc(OC(F)F)cn3)cs2)CO1 | item: total Aβ | healthy adults, plasma | 12 mg single dose, 4 h post-dose | reference: placebo | percent change from baseline | -45% |
| Cc1cnc(Nc2ccc(OCCOc3ccc(/N=N/c4ccc(C(=O)NCCC(=O)O)cc4)cc3C(=O)O)cc2)nc1Nc1cccc(S(=O)(=O)NC(C)(C)C)c1 |  | mice, DSS-induced colitis | 10 mg/kg, day 5, unit not given | reference: DSS alone | colon length difference | -12.8 |
| N#Cc1ccc2c(-c3ccncc3)c(-c3ccc(F)cc3)nn2c1 | kinase binding, competitor, MIB/MS competition, item: SHA3 | Candida albicans cell lysate | 100 nM | reference: DMSO | log2 fold change | -0.545 |
| Cc1cc(F)cc2c(CCC(=O)N[C@@H]3C(=O)NC[C@H]3O)c(-c3ccc(F)cc3)[nH]c12 |  | mice, APOL1 G2, single copy | oral, 30 mg/kg twice daily, dosing from day 6, with: IFNγ plasmid injection |  | UACR AUC days 6-14 | 56700 µg·days/mg and 25200 µg·days/mg and 4540 µg·days/mg and 2780 µg·days/mg and 4990 µg·days/mg |
| O=S(=O)(Nc1nccs1)c1ccc(N=NN(O)c2ccccc2)cc1 | carrageenan-induced paw edema | Wistar rat | oral, 100 mg/kg, 4 h after carrageenan, with: carrageenan 1% subplantar | higher = more edema | paw edema volume | 4.43 ± 0.76 a.u. |
| CC(C)NCC(O)c1ccc(O)c(O)c1 (stereo not drawn) |  | ventricular cardiomyocytes, C57BL/6 mouse | dose not given, 0.184 s |  | sarcomere length | 1.5 µm |

| Structure (SMILES) | test | system | setting | how to read | quantity | value |
| --- | --- | --- | --- | --- | --- | --- |
| CC(C)C[C@H](NC(=O)[C@@H](Cc1c[nH]c2ccccc12)NC(=O)[C@H](Cc1ccc(O)cc1)NC(=O)[C@H](CO)NC(=O)[C@H](Cc1c[nH]c2ccccc12)NC(=O)[C@H](Cc1c[nH]cn1)NC(=O)[C@@H]1CCC(=O)N1)C(=O)N[C@@H](CCCNC(=N)N)C(=O)N1CCC[C@H]1C(=O)NCC(N)=O |  | Chinese boys, central precocious puberty | intramuscular, 22.5 mg day 1, month 6, month 6, unchanged Tanner stage IV | reference: screening | boys at genital stage | 0% |
| CC#CC(=O)N[C@H]1CCCN(c2c(F)cc(C(N)=O)c3[nH]c(C)c(C)c23)C1 | item: IgG | human | 3 mg once daily, day 21 | reference: baseline | serum immunoglobulin | -3.8 % change |
| Cc1cccc(N(O)N=Nc2ccc(S(=O)(=O)Nc3cc(C)on3)cc2)c1 | carrageenan-induced paw edema | Wistar rat | oral, 100 mg/kg, 3 h after carrageenan, with: carrageenan 1% subplantar | higher = more edema | paw edema volume | 4.57 ± 0.53 a.u. |
| COc1ncnn2ccc(-c3cnc4nc(C)n(Cc5nnc([C@@H](C)F)o5)c4c3)c12 |  | Homo sapiens, relapsed or refractory AML or MDS | dose not given, MDS patients |  | complete response rate | 50% |
| Cc1noc(NS(=O)(=O)c2ccc(N=NN(C)O)cc2)c1C | carrageenan-induced paw edema | Wistar rat | oral, 100 mg/kg, 1 h after carrageenan, with: carrageenan 1% subplantar | higher = more edema | paw edema volume | 5.6 ± 0.43 a.u. |
| CCCCC1(CCCC)CN(c2ccccc2)c2cc(SC)c(OCC(=O)N[C@@H](C(=O)NCC(=O)O)c3ccccc3)cc2S(=O)(=O)C1 | item: 7α-hydroxy-4-cholesten-3-one | human, plasma | 15 mg once daily, day 14 |  | plasma C4 | 75.9 ng/mL |
| CC(C)(C)c1sc2ncnc(Oc3c(F)cccc3OC(F)(F)F)c2c1-c1ccc(Cl)cc1 | heat hyperalgesia | humanized MrgprX1 mice, CCI | oral, dose not given |  | time to maximum effect | 2 h |
| COc1nc(NCc2cn(-c3ccc(C(=O)Nc4ccc(Br)cc4)cc3)nn2)nc(OC)n1 | cell viability, MTT | normal colonocytes, rat | 72 h |  | IC50 | 0.106 ± 0.00517 µM |
| N#Cc1ccc2c(c1)[C@H]1CCCN(C(=O)c3ccc4[nH]cnc4c3)[C@H]1C2 |  | human clinical trial, male | oral, 240 mg once daily |  | androstenedione change from baseline | 1.75 nmol/L |
| Cc1cccc(N(O)N=Nc2ccc(S(=O)(=O)Nc3nccs3)cc2)c1 | carrageenan-induced paw edema | Wistar rat | oral, 100 mg/kg, 4 h after carrageenan, with: carrageenan 1% subplantar | higher = more edema | paw edema volume | 4.51 ± 0.64 a.u. |
| COc1cc(O)c(CC=C(C)C)c(O)c1C(=O)/C=C/c1ccc(O)cc1 |  | male Tac:SW mice, conventional and germ-free | in high-fat diet, 60 mg/kg/day, 10 weeks | reference: high-fat diet alone | high-fat diet-induced weight gain | no effect |
| CO[C@H]1CC[C@H](N2C(=O)CNc3ncc(-c4ccc(C(C)(C)O)nc4)nc32)CC1 | flow cytometry | stimulated monocytes, human, blood | 30 mg single dose, 1.5 h, mean | reference: baseline | pAKT change from baseline | -47.1% |
| CC(C)[C@H](C(=O)Nc1ccc(C(=O)NO)cc1)c1ccccc1 | volumetric MRI | human, right meningioma | dose not given, day 224 |  | tumour growth rate | 0 %/year |
| N#Cc1ccn2c(-c3ccncc3)c(-c3ccc(F)cc3)nc2c1 | kinase binding, competitor, MIB/MS competition, item: CDC7 | Candida albicans cell lysate | 100 nM | reference: DMSO | log2 fold change | 0.173 |
| O=C(O)CNC(=O)Cc1ccccc1 |  | ventricular cardiomyocytes, C57BL/6 mouse | dose not given, 0.608 s |  | sarcomere length | 1.68 µm |
| COc1c(C)cnc(Cn2cc(C#CCCOP(=O)(O)O)c3c(Cl)nc(N)nc32)c1C | item: HER-2 extracellular domain | human patients, serum | 48 mg/m^2 |  | serum HER-2 ECD decrease | < 20 % below baseline |
| C[C@@H](NC(=O)N1C(=O)[C@H](Cc2ccnc(N)c2)[C@H]1C(=O)O)C1CCCCC1 |  | human, plasma | continuous intravenous infusion, 0.3 mg/kg/h, days 1 to 6 of 5-day infusion, median |  | time to maximum prothrombin time | 121 h |
| COCCOC(=O)C1=C(C)NC(C)=C(C(=O)OC(C)C)C1c1cccc([N+](=O)[O-])c1 (stereo not drawn) | whole-cell current clamp | DRG neurons, naive rat | dose not given |  | resting membrane potential | -64.6 mV and -69.2 mV and -62.9 mV and -75.6 mV and -64.8 mV and -68.7 mV |
| O=C(OC(C(F)(F)F)C(F)(F)F)N1CCN(Cc2cccc(Oc3ccccc3)c2)CC1 | PET blocking study | rhesus monkey, brain THA | 0.01 mg/kg, compound pretreatment, with: [18F]T-401 tracer |  | k3 | 0.003 min⁻¹ |

Repeated from above:
| Structure (SMILES) | test | system | setting | how to read | quantity | value |
| --- | --- | --- | --- | --- | --- | --- |
| CC(C)NCC(O)c1ccc(O)c(O)c1 (stereo not drawn) |  | ventricular cardiomyocytes, C57BL/6 mouse | dose not given, 0.184 s |  | sarcomere length | 1.5 µm |
| CC(C)[C@H](C(=O)Nc1ccc(C(=O)NO)cc1)c1ccccc1 | volumetric MRI | human, right meningioma | dose not given, day 224 |  | tumour growth rate | 0 %/year |
| N#Cc1ccc2c(c1)[C@H]1CCCN(C(=O)c3ccc4[nH]cnc4c3)[C@H]1C2 |  | human clinical trial, male | oral, 240 mg once daily |  | androstenedione change from baseline | 1.75 nmol/L |
| CSCCNc1nc(SCCC(F)(F)F)nc2c1ncn2[C@@H]1O[C@H](COP(=O)(O)OP(=O)(O)C(Cl)(Cl)P(=O)(O)O)[C@@H](O)[C@H]1O | ADP-induced platelet aggregation, LTA | human patients, platelet-rich plasma | dose not given, 4 to 6 h, with: ADP 20 µM |  | inhibition | 25.3 ± 25.3% |
| CN(C(=O)n1cnc(-c2ccc[n+]([O-])c2)c1)C1CCCCC1 | item: PEA | human, plasma | 5 mg single dose |  | AUC(0-t) | 355 ng·h/mL |
| COc1nc(NCc2cn(-c3ccc(C(=O)Nc4ccc(Br)cc4)cc3)nn2)nc(OC)n1 | cell viability, MTT | normal colonocytes, rat | 72 h |  | IC50 | 0.106 ± 0.00517 µM |
